# Results of several laboratories.
# Each line is one published result; not all experiments were run side by side. ± gives the spread as reported.
# Cell line: HepG2
Structure (SMILES),observed,technique,time,IC50
CCN(CC)c1ccc2c(c1)Oc1cc(N(CC)CC)ccc1C21c2ccccc2C(=O)N1N=Cc1c[c-]c(-c2ccccn2)cc1.Cc1c(C)c(-c2ccc(-c3ccccc3)cc2)[c-](C)c1C.[Cl-].[Ir+3],cell growth,MTT,24 h,28.7 ± 6.9 µM
Cc1cc(CN2CCC(CCCCCCC(=O)NO)CC2)cc(C)c1-c1ncn(C)c1-c1ccc(C#N)c2ccccc12,cell growth or viability,MTT,72 h,0.05 µM
CC(=O)OC[C@]1(C)CCC[C@]2(C)[C@@H]1CC[C@@]13C[C@@H](C[C@H](O)[C@H]12)[C@H](C)C3=O,cell growth or viability,MTT,,> 20 µM
CC(=O)O[C@H]1CC[C@]2(C)[C@H]3CC=C4[C@@H]5CC(C)(C)CC[C@]5(CO)CC[C@@]4(C)[C@]3(C)CC[C@H]2C1(C)C,cell growth or viability,SRB,,72.8 µM
COc1cc(/C=C/C(=O)NCCCCCCNC2=C3C[C@@H](C)C[C@H](OC)[C@H](O)[C@@H](C)/C=C(\C)[C@H](OC(N)=O)[C@@H](OC)/C=C\C=C(/C)C(=O)NC(=CC2=O)C3=O)ccc1O,cell growth or viability,MTT,72 h,0.472 µM
C[S+](C)([O-])[Pt-2]([Cl])([Cl])[N+](=Cc1ccc[nH]1)Cc1ccccc1,cell growth or viability,MTT,24 h,0.3 µg/mL
COC(=O)CNC(=O)CNC(=O)CNC(=O)COc1ccc2c(C)cc(=O)oc2c1,cell growth or viability,MTT,,377 µM
COc1ccc(/C=C/C(=O)/C=C/c2cn(-c3ccccc3)nc2C(=O)O)c(OC)c1,cell growth,,72 h,> 25 µM
C=CCc1ccc(OC(C)=O)c(OC)c1,,MTT,24 h,> 50 µM
Cc1ccc2nc(Cl)c(-c3nc4cc(Cl)ccc4[nH]3)cc2c1,cell growth or viability,MTT,48 h,> 100 µM
[NH2][Pt]1([NH2])([Cl])([O]C(=O)C(F)(F)F)[O]C(=O)C2(CC(=O)C2)C(=O)[O]1,cell growth or viability,MTT,,15 µM
CC(C)(C)c1cc2c(O)c(c1)Cc1cc(C(C)(C)C)cc(c1OCC(=O)NCc1cccnc1)Cc1cc(C(C)(C)C)cc(c1O)Cc1cc(C(C)(C)C)cc(c1OCC(=O)NCc1cccnc1)COC2,cell growth or viability,MTT,72 h,8.8 µM
Cn1[c]([Ir-3]234([NH3+])[n]5c6ccc5C(c5c(F)c(F)c(F)c(F)c5F)=C5C=CC(=[N+]52)C(c2c(F)c(F)c(F)c(F)c2F)=c2ccc([n]23)=C(c2c(F)c(F)c(F)c(F)c2F)C2=[N+]4C(=C6c3c(F)c(F)c(F)c(F)c3F)C=C2)[n+](C)c2ccccc21.F[P-](F)(F)(F)(F)F,cell growth or viability,MTT,72 h,1.6 µM
CS/C(=N/N=C(\C)c1ccc(S(=O)(=O)N2CCC(C)CC2)cc1)SCc1ccccc1,cell growth or viability,MTT,,44.9 µM
c1ccc(CCCNc2ncnc3cc(OCC4CCN(CCNc5ccnc6ccccc56)CC4)ccc23)cc1,cell growth or viability,ATP luminescence,72 h,1.4 µM
NC(=S)NNC(=O)c1cc2c(ccc3ccccc32)oc1=O,cell growth or viability,SRB,72 h,6.9 µM
C=CCSc1nc(N)c2c(F)c(C#N)c(F)c(Cl)c2n1,cell growth or viability,MTT,96 h,31.6 µM
Cc1cccc2c1NC(=O)C21C2=C(COC2=O)NC2=C1C(=O)c1ccccc1C2=O (centres unmarked),cell growth or viability,MTT,72 h,6.8 µM
C=C(C)[C@@H]1CC[C@]2(COC(=O)CCC(=O)O)CC[C@]3(C)[C@H](CC[C@@H]4[C@@]5(C)CC[C@H](OC(=O)CCC(=O)O)C(C)(C)[C@@H]5CC[C@]43C)[C@@H]12,cell growth or viability,SRB,72 h,8.02 µg/mL
O=S(=O)([O-])[O-].[Cu+2].c1ccc(-c2nnc(-c3ccc4c(c3)OCO4)[nH]2)nc1,cell growth or viability,MTT,24 h,5.98 µM
N#Cc1cccc(-c2ccc(=O)n(Cc3cccc(-c4ncc(OCC5CCN(CCCCCCCCC(=O)Nc6cccc7c6C(=O)N(C6CCC(=O)NC6=O)C7=O)CC5)cn4)c3)n2)c1 (centres unmarked),cell growth or viability,CCK-8,72 h,> 100 µM
Cc1cc2nc(-c3cc4cc5c(cc4nc3Cl)OCO5)[nH]c2cc1C,cell growth or viability,MTT,48 h,> 100 µM
N#Cc1c(F)c(F)c2nc(SCc3ccc4ccccc4c3)nc(N)c2c1F,cell growth or viability,MTT,96 h,6.41 µM
Nc1ccccc1NC(=O)c1ccc(Nc2nccc(-c3cn(C4CCCC4)nn3)n2)cc1,cell growth or viability,SRB,72 h,3 µM
Cc1ccc2nc(Cl)c(-c3nc4cc(Cl)c(Cl)cc4[nH]3)cc2c1,cell growth or viability,MTT,48 h,> 100 µM
CC1OC(OCC2OC(Oc3cc(O)c4c(=O)cc(-c5ccc(O)c(O)c5)oc4c3)C(O)C(O)C2O)C(O)C(O)C1O (centres unmarked),cell growth or viability,resazurin,72 h,> 100 µM
N#Cc1cccc(-c2ccc(=O)n(Cc3cccc(-c4ncc(OCC5CCN(CC(=O)N6CCN(c7ccc8c(c7)C(=O)N(C7CCC(=O)NC7=O)C8=O)CC6)CC5)cn4)c3)n2)c1 (centres unmarked),cell growth or viability,CCK-8,72 h,0.543 µM
CC(=O)O[C@H]1CC[C@]2(C)[C@H]3CC=C4[C@@H]5CC(C)(C)CC[C@]5(C(=O)O)CC[C@@]4(C)[C@]3(C)CC[C@H]2C1(C)C,cell growth or viability,SRB,,32.5 µM
N#CC[C@H](C1CCCC1)n1cc(-c2ncnc3[nH]ccc23)cn1,cell growth or viability,MTT,72 h,> 25 µM
CC(=O)OC[C@H]1O[C@@H](Sc2nnc(-c3cc4ccccc4[nH]3)n2-c2ccccc2)[C@H](OC(C)=O)[C@@H](OC(C)=O)[C@@H]1OC(C)=O,cell growth or viability,MTT,,6.71 µM
NC(=O)c1ccc(-c2ccccc2Cl)c2c3c([nH]c12)CCC(N)C3 (centres unmarked),cell growth or viability,,,0.023 µM
COc1ccc([C@@H]2COc3cc(O)ccc3C2)c(OC)c1,cell growth or viability,MTT,72 h,28.6 µM
OCCn1ncc2c(Nc3ccc(F)cc3)ncnc21,cell growth or viability,MTT,,> 50 µM
Cc1cc(C#N)cc(C)c1Oc1cc(Nc2ccc(C#N)cn2)nc2ccncc12,,,48 h,> 127 µM
O=C(CCl)Sc1nnc(-c2n[nH]c(=O)c3ccccc23)o1,cell growth or viability,MTT,48 h,6.9 µM
CC(C)=C1CC[C@]2(COC(=O)c3ccccc3)[C@@H](OC(=O)c3ccccc3)/C=C(\C)CC[C@@H]3O[C@@]3(C)C[C@@H](OC(=O)c3cccnc3)[C@@H]12,cell growth or viability,CCK-8,24 h,> 50 µM
CSC(=N/N=C(\C)c1ccc(S(=O)(=O)N2CCC(C)CC2)cc1)SC,cell growth or viability,MTT,,10.6 µM
CCOc1cccc2c1[O][Pt-2]1([Cl])[N+](=C2)CC[NH+]1c1ccccc1 (centres unmarked),cell viability,MTT,48 h,31.5 ± 0.98 µM
CCCCCCCCSc1nc(N)c2c(F)c(C#N)c(F)c(Cl)c2n1,cell growth or viability,MTT,96 h,> 100 µM
CC(C)Cn1cc(-c2nc(Nc3ccc(OCCCCCCC(=O)NO)cc3)ncc2F)nn1,cell growth or viability,SRB,72 h,7.43 µM
C/C(=N\N=C1/NC(=O)CS1)c1c(O)c2ccccc2oc1=O,cell growth,MTT,48 h,97.6 ± 8.2 µM
CN(C)C(=NN=C(c1ccccc1)c1ccccn1)[S][Ga]([Cl])[Cl],cell growth or viability,MTT,48 h,0.34 µM
CC(=O)OC[C@H]1O[C@@H](Sc2nc3c4cnn(C(=O)CNc5ccc(C)cc5)c4ncn3n2)[C@H](OC(C)=O)[C@@H](OC(C)=O)[C@@H]1OC(C)=O,cell growth or viability,MTT,48 h,0.048 µM
N#Cc1cccc(-c2ccc(=O)n(Cc3cccc(-c4ncc(OCC5CCN(CC(=O)NCCOCCOCCNc6ccc7c(c6)C(=O)N(C6CCC(=O)NC6=O)C7=O)CC5)cn4)c3)n2)c1 (centres unmarked),cell growth or viability,CCK-8,72 h,7.47 µM
CC(=O)OC[C@H]1O[C@@H](N2C(=O)/C(=C/c3ccc4c(c3)OCCO4)SC2=S)[C@H](OC(C)=O)[C@@H](OC(C)=O)[C@@H]1OC(C)=O,cell growth or viability,MTT,48 h,11.3 µM
COc1ccc2nc(Cl)c(-c3nc4cc(C)c(C)cc4[nH]3)cc2c1,cell growth or viability,MTT,48 h,37.8 µM
O=c1cc(-c2ccc(O)c(O)c2)oc2cc(O[C@@H]3O[C@H](CO)[C@@H](O)[C@H](O)[C@H]3O)cc(O)c12,cell growth or viability,MTT,24 h,34.4 µg/mL
COc1cc(OC)c(/C=C/C(=O)c2c(OC)cc(OC)cc2OC)c(OC)c1,cell growth or viability,MTT,48 h,87.6 µM
CC(=O)[O-].O.[Cu+2].[O-]c1ccc(Br)cc1C=NCCN1CCOCC1,cell viability,MTT,72 h,22.7 µg/mL
CCCC/C=N/NC(=O)c1cc2cc(Nc3nccc(-c4cccnc4)n3)ccc2[nH]1,cell growth or viability,MTT,48 h,> 20 µM
COC(=O)CNc1cc(C[S+]([O-])c2ccc3cc(Br)ccc3c2)ccc1OC (centres unmarked),cell growth or viability,MTS,48 h,7.09 µM
COc1ccc(C(c2c[nH]c3ccccc23)c2c[nH]c3ccccc23)cc1,cell growth or viability,MTT,24 h,4.93 µM
CC1=CC(OC(=O)c2ccccc2)C2(COC(=O)c3ccccc3)CCC(=C(C)C)C2C(O)CC2(C)OC2CC1 (centres unmarked),cell growth or viability,CCK-8,24 h,> 50 µM
COc1ccccc1CNC(=O)CCn1c(=O)[nH]c2ccsc2c1=O,cell growth or viability,MTT,,> 50 µM
COc1ccc(C(=O)Cn2cc([C@]3(O)CC[C@H]4[C@@H]5CCc6cc(O)ccc6[C@H]5CC[C@@]43C)nn2)cc1,cell growth or viability,resazurin,72 h,16.4 µM
COc1ccc2nc(Cl)c(-c3nc4cc(Br)ccc4[nH]3)cc2c1,cell growth or viability,MTT,48 h,12.2 µM
Cc1cc(C=O)cc(C)c1Oc1cc(Nc2ccc(C#N)cn2)nc2ccncc12,,,48 h,> 126 µM
C=CC(OC(C)=O)c1ccccc1 (centres unmarked),,MTT,24 h,> 50 µM
"C=C1C(=O)[C@@]23CC[C@@H]4C(C)(C)CCC[C@@]4(COC(C)=O)[C@@H]2[C@@H](O)C[C@@H]1C3 (single isomer, unassigned)",cell growth or viability,MTT,,8 µM

# For quick reference, copied from above:
Structure (SMILES),observed,technique,time,IC50
C=CCc1ccc(OC(C)=O)c(OC)c1,,MTT,24 h,> 50 µM
CCCC/C=N/NC(=O)c1cc2cc(Nc3nccc(-c4cccnc4)n3)ccc2[nH]1,cell growth or viability,MTT,48 h,> 20 µM
C=CCSc1nc(N)c2c(F)c(C#N)c(F)c(Cl)c2n1,cell growth or viability,MTT,96 h,31.6 µM
COc1ccc([C@@H]2COc3cc(O)ccc3C2)c(OC)c1,cell growth or viability,MTT,72 h,28.6 µM
